# Results gathered from unrelated publications.
# Every numbered part comes from another study and shows a few of its results, in no order.

# Study 1 — method: protein-binding microarray; form: double-stranded DNA, one strand shown; matrix: in vitro; concentration: 940 nM top; setting: 60-bp whole probe; with: salmon DNA 0.4 mg/ml; baseline: random background probes; reading: higher = stronger binding; constant ends, left off below: GCCTAGCAC … GTCTTGATTCGCTTGACGCTGCTG
# Target: Interferon regulatory factor 5, full length, phosphomimetic (IRF5, Homo sapiens, UniProt Q13568-2, residues 1-514, S451D/S453D/S456D/S462D)
Sequence,fitted relative affinity [z-score]
TGGATGGTCCTGGTTTCATGGGTGCTA,0.139
TTAGGTCGCCTACTGCTTTAGTGCTAG,-0.326
TTGGATCTCAGTTTCGATTAGTGCTAG,7.98
TCATTATTTATTTTTACACTGTGCTAG,1.46
TTAGGTATCGACTATTGGTTAGTGCTA,4.91
TTGTTTCTAATATTCTGCTTGTGCTAG,1.27
TCATTTTTTCTTTTATTACTGTGCTAG,2.14
TTTCTTCTAGACTTCTCCATGTGCTAG,3.18
GACGGTATCCTTTTCCTGGCGTGCTAG,0.902
TCATGTTGTTTTTTGGTACTGTGCTAG,1.29
AACTCTCTAATTTTGAGACTGTGCTAG,0.335
GACGGACTGGGGTTTCGGGTCGTGCTA,3.82
TTTGATATCAGACTGGATTAGTGCTAG,-0.411
TTAGGTTTCCTTTTCCTTCAGTGCTAG,2.11
TTTTCATTGTTTTTCATCATGTGCTAG,2
TCATCTTCCCTTTTAAGACTGTGCTAG,1.02
GACGAAATGGGGACTGGAGACGTGCTA,0.00343
GACGATTTCGGGATTCGAGACGTGCTA,0.482
GACGATATTAGTATCGAGACGTGCTAG,2.57
TCAAGTTTCCATTTTCTACTGTGCTAG,2.16
TTATGTATCCTTTTCCTTTAGTGCTAG,1.13
TTAGGTATCCTTCTTCTTTAGTGCTAG,1.17
CACGAACTGAGACTGGAGACGTGCTAG,-0.019

# Study 2 — method: universal PBM; form: double-stranded DNA, one strand shown; matrix: in vitro; concentration: 600 nM; reading: higher = stronger binding
# Target: Sal-like protein 4, full length isoform A (SALL4, Homo sapiens, UniProt Q9UJQ4, residues 1-1053)
# Sequence of UniProt Q9UJQ4 (whole entry, looked up): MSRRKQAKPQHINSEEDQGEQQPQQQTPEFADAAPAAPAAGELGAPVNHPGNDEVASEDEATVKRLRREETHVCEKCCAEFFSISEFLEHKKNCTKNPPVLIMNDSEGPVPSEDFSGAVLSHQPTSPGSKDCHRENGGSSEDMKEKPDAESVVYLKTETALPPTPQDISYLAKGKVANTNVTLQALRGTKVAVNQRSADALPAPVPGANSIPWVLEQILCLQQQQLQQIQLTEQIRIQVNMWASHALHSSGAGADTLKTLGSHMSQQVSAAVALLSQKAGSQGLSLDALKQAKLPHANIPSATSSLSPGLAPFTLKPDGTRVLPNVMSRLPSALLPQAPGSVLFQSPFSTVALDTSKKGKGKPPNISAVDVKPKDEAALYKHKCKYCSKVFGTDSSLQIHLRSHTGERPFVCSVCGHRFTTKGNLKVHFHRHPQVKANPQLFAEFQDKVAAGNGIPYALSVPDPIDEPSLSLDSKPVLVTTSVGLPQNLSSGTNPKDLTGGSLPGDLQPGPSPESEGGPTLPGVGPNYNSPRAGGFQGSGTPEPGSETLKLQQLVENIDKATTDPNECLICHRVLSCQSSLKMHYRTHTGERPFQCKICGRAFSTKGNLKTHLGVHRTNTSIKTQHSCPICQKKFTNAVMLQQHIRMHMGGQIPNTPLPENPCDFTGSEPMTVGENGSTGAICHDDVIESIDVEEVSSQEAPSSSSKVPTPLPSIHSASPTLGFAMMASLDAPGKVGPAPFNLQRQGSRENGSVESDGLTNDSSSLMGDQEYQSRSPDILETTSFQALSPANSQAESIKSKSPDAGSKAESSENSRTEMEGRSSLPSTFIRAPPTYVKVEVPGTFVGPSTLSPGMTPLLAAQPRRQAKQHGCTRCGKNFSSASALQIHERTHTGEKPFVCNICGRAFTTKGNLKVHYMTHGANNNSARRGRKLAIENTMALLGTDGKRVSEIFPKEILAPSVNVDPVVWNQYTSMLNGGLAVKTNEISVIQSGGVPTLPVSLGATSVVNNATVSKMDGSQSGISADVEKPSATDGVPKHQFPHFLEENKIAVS
# Setting: 8-mer, flanks averaged, mean of replicates
Sequence,E-score
CGTGTCTC,-0.00304
GCCCTATA,0.159
CCTTTAAC,0.107
AGCAATTG,0.153
ACCTTTGA,0.112
GCAATCAA,0.0431
TGCTAACA,0.0462
GGTGGTGA,-0.16
AATGTATC,0.245
AAAGCGAA,0.0807
CTACGACA,0.0431
CGGTGCAA,-0.163
ACAGTATA,0.225
CGGCAACA,-0.0227
CGATACCC,-0.36
ACTGCCGG,-0.201
AAGTGTTA,0.223
ACCCCTGG,-0.318
AATGCCAA,0.0642
AAGGACCA,-0.25
GATTAACC,-0.107
CCAATATC,0.176

# Study 3 — method: protein binding microarray; form: double-stranded DNA, one strand shown; matrix: in vitro; concentration: not given; baseline: not given; reading: higher = stronger binding
# Target: Histone acetyltransferase KAT6A, winged helix 2, GST fusion (KAT6A, Homo sapiens, UniProt Q92794, residues 85-181)
# Setting: 8-mer, flanks averaged, mean of 2 arrays, mostly near background
# Target sequence (chain): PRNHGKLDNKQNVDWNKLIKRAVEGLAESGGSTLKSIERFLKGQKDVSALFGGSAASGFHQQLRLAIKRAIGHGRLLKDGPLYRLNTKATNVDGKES
Sequence,E-score
GATATGAC,-0.0281
CACTTTAA,-0.135
ACCGTTTC,-0.0145
ACTTTAGA,-0.129
GCCAGTTA,-0.0459
AGCGAAAG,0.0629
CACGAGTC,-0.1
ATTTCGAC,-0.178
CGTTTTTC,-0.0559
AACATATC,-0.0123
TGGAAGAA,0.168
AAGACGGA,0.01
ACTCCGAG,0.0577
AGTATGTG,-0.0866
TAGTCGGA,-0.0746
AAGAGTTC,-0.2
TCGCGTAA,-0.0223
GAAACGGC,0.0685
AAAAGCCC,-0.0726
TCCGAACA,0.00776
CTCACCAC,0.00915
GAGATATA,-0.0025
ACTTTACG,-0.131
CCGTACGA,-0.129
GAGACTGC,-0.021

# Study 4 — method: RNA Bind-n-Seq; form: RNA; matrix: in vitro; concentration: 100 nM; baseline: input RNA pool; reading: higher = stronger binding
# Target: RING finger protein unkempt homolog, zinc fingers 1-6, SBP tag (UNK, Homo sapiens, UniProt Q9C0B0, residues 30-357)
# Sequence of UniProt Q9C0B0 (30-357, looked up): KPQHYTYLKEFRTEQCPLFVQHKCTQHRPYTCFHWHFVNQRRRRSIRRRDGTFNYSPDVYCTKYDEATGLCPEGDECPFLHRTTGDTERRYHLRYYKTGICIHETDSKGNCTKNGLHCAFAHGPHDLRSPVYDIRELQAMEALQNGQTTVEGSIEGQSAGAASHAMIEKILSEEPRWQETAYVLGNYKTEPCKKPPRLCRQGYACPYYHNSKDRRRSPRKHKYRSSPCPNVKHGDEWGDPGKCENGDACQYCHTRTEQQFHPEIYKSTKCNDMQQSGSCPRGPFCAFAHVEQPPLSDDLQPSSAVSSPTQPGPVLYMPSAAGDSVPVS
# Setting: RNA with constant flanks, vertebrate orthologous sites, ends assumed
# Constant ends, left off below: GGGAGUUCUACAGUCCGACGAUC … CAACAGAGGAUUGAGCAUCA
Sequence,bound/input enrichment [ratio]
GCAAAUCCAAUCACUGUGAUAUUUAAAAUAUGCACAGUCCUAAUUCUUUCUCAAUGAUCCUAGUAUUUUCCUAGCUGUAUCUUUGUAUCUCAUACUGUUAUUUAUCAGUUUUGUUCCCCU,0.935
UUACAGUCAUUGAUGGACUCUAUUUUUUUAUUAUUACUUGGACCUUGGUCGUUUUUAUACUAGCAAAAUGUCUUGUUUUACUUUUGUGUUUUUUGGGGGGGGAGGGAGUGAACUUGCUGA,2.47
UUGUUUUGUACAGGGCAUUCUCUGUACAAAUUUGUUGUGGUUAUAAAACAAUUAGCAAAACAGCUUACAUUUGUAUUUAUUUUCUAUUCCAUACCUCUUCCCCAUGUUUUUUCCCCUCAA,0.673
GAGCUAAAGGAGUUAGCAUCUUUAUUUUUGUAUCAAAGAUAAGGGUUAUUUUGAAAUUAUUAGGAUUUUUACACAACUCUGAAAUCUGUUGCUUUUUGUAUAAACAAAUUGUUUGAUCUU,0.958
AAUAAGCUCUAGUUCUUAAGAUCCAACACUCCUAAAAGAGUUAGGAAGAAAAUAAAAGUUUACAACAUAACCUAGUCUUGUGCUAGAAUACUUUUUUAAAAAGUAUUUUUGAAUAUCAUU,0.109
UUCAGGCACAACUGACUGGUUCACAGCAUUCCUUACAUAGUUAUCUAUCAAAUGCAAGUGUAGUUAGUUUUCCCGAAACAACCAGGCAGUCCUCUUUAUCCUGUAGCUCAAUUGGAGAUU,1.58
UGCUGUUAAUGCACUGUAUACCAGGCAUCGUCUGAUCUUAGUGUAAUCUAGGAGAUUUUAUAGUUUUAUUUUAAUGAAGUAUGGAUUGAUGCAAAGCUGUUAGGAAAACGUAGUCUUUUA,2.58
UUGCCUACAAUAAGGAAACCUACAGGAAGUUUUUUAUUUUUCAUUUUCCCCUUAGGCAUAGUUAGUCUUUUUCUCCCCAGGCAGAUCAUUCUGAGUGUGCAAGUGUGUGUGCACAUGUUA,0.844
GUCCCCUGAGCCGGGACAGAUUUUUUUUUUAACGUCUUGAAACUUAAAACUCUGUGCUUGUAGGAGACUGUAACCUUUUUGUCUUUUUAAAAAAAACAAUCUCCACCUCCAGUGGCUGUG,0.42
UAGUUUGUUUUUAAUUUCAAGCAAAAAAAUCUUAUUGUACUUGAAUGUGUCCUGUUUUGUUAGCACACCUAGACUUGCUGUAACUGUACUCAUGUCCCAGUAUGUACGUUCUUUCUAUGA,0.93
AAAUUUAUUUCAUGCCCUGGACUCCCUAUCGUACCGAUACUUUAAUAGAAUAUGCUUCUUUAGAAGAUUUCCAAAAUAGUCGCCAAACAACAACAUAUAAACUUCCAAAUCGAGUAGAUG,1.67

# Study 5 — method: protein-binding microarray; form: double-stranded DNA, one strand shown; matrix: in vitro; concentration: 0.8 µM; setting: whole 60-bp probe, no competitor; reading: higher = stronger binding; constant ends, left off below: … GTCTTGATTCGCTTGACGCTGCTG
# Target: Centromere-binding protein 1, full length, N-terminal tag (CBF1, Saccharomyces cerevisiae, UniProt P17106, residues 1-351)
# Sequence of UniProt P17106 (whole entry, looked up): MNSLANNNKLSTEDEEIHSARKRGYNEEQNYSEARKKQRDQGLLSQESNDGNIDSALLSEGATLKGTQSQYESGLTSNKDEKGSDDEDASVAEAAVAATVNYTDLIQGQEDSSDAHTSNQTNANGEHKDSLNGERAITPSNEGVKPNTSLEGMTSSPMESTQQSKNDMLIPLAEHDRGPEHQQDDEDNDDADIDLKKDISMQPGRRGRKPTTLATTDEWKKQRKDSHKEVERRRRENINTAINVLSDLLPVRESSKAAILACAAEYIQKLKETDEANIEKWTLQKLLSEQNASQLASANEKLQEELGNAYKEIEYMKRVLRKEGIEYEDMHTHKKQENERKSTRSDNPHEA
Sequence,fluorescence intensity
CCTAACTACTATATACACGTTTCATAGCTTCGTACA,588 a.u.
GAAAAAAAGCCCGAGCACGCACCATGTAATTTCTAG,574 a.u.
CCTAACTACTATAAACCATCAGCATAGCTTCGTACA,520 a.u.
GAAAGAGTGTACCACCACGTTTTAATACTTTGTTAG,572 a.u.
TGTACGAAGCTATATCTGGTGGCTATAGTAGTTAGG,499 a.u.
CTAGACAGCCAGTGTCACGCAGACAAATAACATTTC,662 a.u.
GAAGCCGACCGGCATCACCCATAATTGTATAATTAG,487 a.u.
GAAGATGTTATAAATCACGGAATTAAGAGAAGGTAG,562 a.u.
GAAGCTTCTCTTTCTCGCCTGATAAAGTTGTTTTAG,511 a.u.
GAAAATATGGCGATATACGTGACAGATCCCACATAG,580 a.u.
GAACAGGAAAAAAGTCACACCACAACTGCCCAATAG,691 a.u.
GAATCTCAAATTTTTCACGCGATGAGGAGACAATAG,601 a.u.
GAAAGAAAAGAATGCACCACCATTATGCCTAAGTAG,503 a.u.
CTAACCAAGCCAATCCATCTGATTGGTCATTTTTTC,530 a.u.
GAAATTGGTGGTGGTGGTGTTGGCACCAGTACTTAG,501 a.u.
TGTACGAAGCTATTTCATCAGGGTATAGTAGTTAGG,510 a.u.
CTACATAGTGCGGGTCACCTTGAAAAATCCAAATTC,515 a.u.
CTAGCAAAACCGGGTGACGGGACACCGCTACGATTC,494 a.u.
GAAGCTGTCGTTCGGCACGAGATCTAATCCTTCTAG,810 a.u.
TGTACGAAGCTATATGACACGATTATAGTAGTTAGG,535 a.u.
GAAATCCCCCTTACAAGCGTGCTCCTTTTCCTTTAG,509 a.u.
GAATCTACTTTTGATCACGTCTCTATCTAATGATAG,1120 a.u.
CTAAGCCAACGAGATCACGTGCACAGAAATATCTTC,20800 a.u.

# A few entries again (study 5):
Sequence,fluorescence intensity
GAAAAAAAGCCCGAGCACGCACCATGTAATTTCTAG,574 a.u.
CCTAACTACTATAAACCATCAGCATAGCTTCGTACA,520 a.u.
GAAAGAGTGTACCACCACGTTTTAATACTTTGTTAG,572 a.u.
TGTACGAAGCTATATCTGGTGGCTATAGTAGTTAGG,499 a.u.
CTAGACAGCCAGTGTCACGCAGACAAATAACATTTC,662 a.u.
GAAGCCGACCGGCATCACCCATAATTGTATAATTAG,487 a.u.
